Experimental data of several laboratories.
Compare with care: the assays were run in different laboratories.
T1: G-quadruplex DNA, parallel, snap-back loop (Homo sapiens); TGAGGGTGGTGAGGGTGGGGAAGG
T2: G-quadruplex DNA (Homo sapiens); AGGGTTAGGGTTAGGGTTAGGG
T3: G-quadruplex DNA, intramolecular, parallel, heme DNAzyme; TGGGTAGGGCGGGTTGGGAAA
T4: G-quadruplex DNA (Homo sapiens); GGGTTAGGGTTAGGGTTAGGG
T5: G-quadruplex DNA, G-quadruplex (Homo sapiens); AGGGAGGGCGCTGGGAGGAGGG
T6: G-quadruplex DNA, parallel; GGGTAGGGCGGGTTGGGA
T7: G-quadruplex DNA G6A/G17A (Homo sapiens); AAGGGAGGGCGGCGGGACA
T8: G-quadruplex DNA, quadruplex; GGTTGGTGTGGTTGG
T9: G-quadruplex DNA central-tetrad variant; GAGTGGGAAGGGTGGGA
T10: G-quadruplex DNA, G-quadruplex (Homo sapiens); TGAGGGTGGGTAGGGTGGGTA

Structure (SMILES) = C[n+]1cc(NC(=O)c2ccc3ccc4ccc(C(=O)Nc5cc6ccccc6[n+](C)c5)nc4c3n2)cc2ccccc21; target = T1, G-quadruplex DNA, parallel, snap-back loop (Homo sapiens); test = Cy5 fluorescence quenching titration; setting = 2 nM, pH 7.2, KCl 100 mM; measurement = Kd; result = 0.0067 µM
Structure (SMILES) = COc1ccc2c(c[n+](C)c3c4cc5c(cc4ccc23)OCO5)c1OC; target = T2, G-quadruplex DNA (Homo sapiens); test = competitor, fluorescent dye displacement; setting = 0.40 µM, pH 7.43, room temperature, K+ 100 mM; how to read = higher = more displacement; measurement = displacement; result = 63.1%
Structure (SMILES) = C=CC1=C(C)C2=Cc3c(C=C)c(C)c4[n]3[Fe][n]3c(c(C)c(CCC(=O)O)c3=CC3=NC(=C4)C(C)=C3CCC(=O)O)=CC1=N2; target = T3, G-quadruplex DNA, intramolecular, parallel, heme DNAzyme; test = UV-vis absorbance titration; setting = KCl 20 mM, added: Fe(II)-heme 0.5 µM; measurement = Kd; result = 1.3 µM
Structure (SMILES) = C[n+]1ccc(-c2c3nc(c(-c4cc[n+](C)cc4)c4ccc([nH]4)c(-c4cc[n+](C)cc4)c4nc(c(-c5cc[n+](C)cc5)c5ccc2[nH]5)C=C4)C=C3)cc1; target = T4, G-quadruplex DNA (Homo sapiens); test = FRET melting; setting = 1 µM, pH 7.2, Na+ 50 mM; how to read = higher = more stabilisation; measurement = melting temperature shift; result = 30.6 °C
Structure (SMILES) = COc1ccc2cc3[n+](cc2c1OC)CCc1cc2c(cc1-3)OCO2; target = T5, G-quadruplex DNA, G-quadruplex (Homo sapiens); test = FRET melting; setting = target 0.2 µM, pH 7.0, KCl 10 mM, ligand:DNA ratio 5; how to read = higher = more stabilisation; measurement = melting temperature shift; result = 2.5 °C
Structure (SMILES) = C=CC1=C(C)C2=Cc3c(C=C)c(C)c4[n]3[Fe]([Cl])[n]3c(c(C)c(CCC(=O)O)c3=CC3=NC(=C4)C(C)=C3CCC(=O)O)=CC1=N2; target = T6, G-quadruplex DNA, parallel; test = Soret absorption titration; setting = pH 5.1, 25 °C, K+ 10 mM; measurement = Kd; result = 0.03 µM
Structure (SMILES) = C=Cc1c(C)c2cc3c(C=C)c(C)c(cc4nc(cc5nc(cc1[nH]2)C(C)=C5CCC(=O)O)C(CCC(=O)O)=C4C)n3C; target = T4, G-quadruplex DNA (Homo sapiens); test = FRET melting; setting = 1 µM, pH 7.2, Na+ 50 mM; how to read = higher = more stabilisation; measurement = melting temperature shift; result = 0.3 °C
Structure (SMILES) = Nc1nc2c(ncn2[C@@H]2O[C@H](COP(=O)(O)O)[C@@H](O)[C@H]2O)c(=O)[nH]1; target = T7, G-quadruplex DNA G6A/G17A (Homo sapiens); test = microscale thermophoresis; setting = pH 7, KCl 37.5 mM; measurement = Kd; result = 90.5 µM
Structure (SMILES) = CC(C)C[C@H](NC(=O)[C@H](CCCNC(=N)N)NC(=O)[C@H](Cc1ccc(O)cc1)NC(=O)[C@H](Cc1ccccc1)NC(=O)[C@H](CCCNC(=N)N)NC(=O)[C@@H](N)Cc1c[nH]cn1)C(=O)N[C@@H](C)C(=O)N[C@@H](CC(N)=O)C(=O)O; target = T8, G-quadruplex DNA, quadruplex; test = ITC; setting = pH 7.06, 25 °C, NaCl 150 mM, without K+; measurement = Kd; result = 54.7 µM
Structure (SMILES) = Nc1nc2c(ncn2[C@H]2C[C@H](O)[C@@H](COP(=O)(O)O)O2)c(=O)[nH]1; target = T7, G-quadruplex DNA G6A/G17A (Homo sapiens); test = microscale thermophoresis; setting = pH 7, KCl 37.5 mM; measurement = Kd; result = 59.3 µM
Structure (SMILES) = C=CC1=C(C)c2cc3[n-]c(cc4[n-]c(cc5nc(cc1n2)C(C)=C5C=C)c(C)c4CCC(=O)O)c(CCC(=O)O)c3C.[Cl-].[Fe+3]; target = T9, G-quadruplex DNA central-tetrad variant; test = Cy5 fluorescence quenching titration; setting = pH 8, KCl 200 mM, added: MgCl2 1 mM; measurement = Kd; result = 428 µM
Structure (SMILES) = Nc1nc2c(ncn2COCCO)c(=O)[nH]1; target = T7, G-quadruplex DNA G6A/G17A (Homo sapiens); test = microscale thermophoresis; setting = pH 7, KCl 37.5 mM; measurement = Kd; result = 4.2 µM
Structure (SMILES) = COc1cc(-c2ccc(N(C)C)cc2)c2cc3[n+](cc2c1OC)CCc1cc2c(cc1-3)OCO2; target = T10, G-quadruplex DNA, G-quadruplex (Homo sapiens); test = FRET melting; setting = target 0.2 µM, pH 7.0, KCl 10 mM, ligand:DNA ratio 5; how to read = higher = more stabilisation; measurement = melting temperature shift; result = 3.6 °C
